Assay results gathered from unrelated publications.
Parts stem from different laboratories: compare values within a part only. Positions count from the first letter of the parent shown.

Study 1 — technique: RNA Bind-n-Seq; molecule type: RNA; sample: in vitro; concentration: 365 nM; baseline: no-protein control; direction: higher = stronger binding; endpoint: RBNS enrichment (R)
Target: RNA binding protein fox-1 homolog 2, RRM domain, GST-SBP tag (RBFOX2, Homo sapiens, UniProt O43251-10, residues 100-194)
Notes: natural RNA segment, single round, ends assumed
Construct (chain): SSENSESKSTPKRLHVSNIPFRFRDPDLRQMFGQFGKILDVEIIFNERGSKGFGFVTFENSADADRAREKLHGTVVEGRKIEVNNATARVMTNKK
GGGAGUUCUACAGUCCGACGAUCAGCAUUAUUGCUUUAGAAUGUUCAAAUAAAAUUUCCUGACCAAAUUGUUUUGUGACAGUAGAUGUGUUUAUAAUUUGAAGAUACCUGCUCAGAAGGCCAUAUUAUAGAAUUGGAAUUCUCGGGUGCCAA: 0.784
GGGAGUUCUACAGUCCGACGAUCGGAGCCAGGUGGGAAAAGUGGGUGUGAUUUUUAGAUUUUGUAUUGUGGACUGAUUUUGCCUCACAUUAAAAACUCAUCCCAUGGCCAGGGCGGGCCACUGUGCUCCUGGAUGGAAUUCUCGGGUGCCAA: 2.27
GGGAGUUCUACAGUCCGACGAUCGUAGCCAUUUUCUAGUUAACUCAUGUAAACAAGUAAGAGUAACAUAACAGUAUUACCCUUUCACUGUUCUCACAGGACAUGUACCUAAUUAUGGUACUUAUUUAUGUAGUUGGAAUUCUCGGGUGCCAA: 0.359
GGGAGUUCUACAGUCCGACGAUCUUUAUGCCCCCAUUUUCCUUUUUUUGUAUCUACACCCACACGAUUCCCAAUGUUGGAUAUUUCUACAUGAAUAAAGCAAGGAUCAGUGCCUCUUAUGUAAUUAACGCUCCUGGAAUUCUCGGGUGCCAA: 0.797
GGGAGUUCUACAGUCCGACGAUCACCGCAAAGCCCCCAGUCUUCAUGCAGACCUUGAACCCUCCGUCACACCCGCACCAUGUACUCCCAGGAACCUCCCACCUCUAUACCACCCAUUAAGUGGCUGCUGACUUUGGAAUUCUCGGGUGCCAA: 0.659
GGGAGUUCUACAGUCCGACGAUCGACUUCCCACCAAUGUCUAAACUAUUGUAAAAUAGUAUGAUUCUUUAGCCGUGUUUUGACUGUCUAGUAUUUCUAAAUAUUUCUCUGUAUCCUGGAUGGUCUCAUAACGUUGGAAUUCUCGGGUGCCAA: 0.344
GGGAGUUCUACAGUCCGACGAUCUUUGAUAUUAUAUCUAGCUAUAAAUAAUACAUGACUAUCGUUUUCUAUUGAAUGUCAAAGACUUACUGGGUCUUUACACCUCUGUAAAGUGGAGGUUUUGGCAAUGAGCUUGGAAUUCUCGGGUGCCAA: 0.678
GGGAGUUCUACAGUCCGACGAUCCUCCUGUUCAGUAUCCGAGUCUCGUGCAGUGCUGCGUAGGUUAGCCCGCAUCGUGCAGACAACCUCAGUCCUCUUGUCUAUUUUCUCUUGGGUUGAGCCUGUGACUUGGUUGGAAUUCUCGGGUGCCAA: 0.582
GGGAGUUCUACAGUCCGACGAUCUAGUAGUAACUCUAAGAACCCUUAACUUACAAACAACUUUGUCUCCUCUUAGACAAUAUUCAUUAAAUCUGAGGACACAGUUUGACAGUAGUUCAGAUUCUUGCAUGAGCUGGAAUUCUCGGGUGCCAA: 2.36
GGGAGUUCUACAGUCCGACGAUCUGGUUUUUAGCCCUUUCUCUGCACUACCAACAAGAGAUAAAAUUGUUACUCACACUUAUGUCUUACUGGGUUGCUGGUUUUCAUCGUAACACAGAACGAGGUUAUCUAGGUGGAAUUCUCGGGUGCCAA: 0.411
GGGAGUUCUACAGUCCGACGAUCGCAGUCUGAUUGCUGUGUUACAAGGACCCAGCUGAGCUGAUGUCAUUCGCACUGCCUCUGUUGCUUCUGGCUGACCAGACCUCAUGGCCCUGCACUAGACACCCGACCCUUGGAAUUCUCGGGUGCCAA: 0.311
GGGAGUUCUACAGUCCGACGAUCCACACUGCACUCUUUGAUCCUCCCUGGUGUCUGGUGCCUUCUAUCUUAAAAAACAUGACAAGUCAUAACAGUUUUAAAGGGAAGACUUGUAAACUGGAAAAUCAUGUAUUUGGAAUUCUCGGGUGCCAA: 0.583

Study 2 — target: CREBZF, bZIP domain (human); technique: DHFR protein complementation; sample: yeast; baseline: wild-type JUN-FOS pair; direction: higher = stronger binding; endpoint: binding fitness
Notes: single substitutions, most at no-binding floor
Starting sequence: JUN, bZIP domain (human); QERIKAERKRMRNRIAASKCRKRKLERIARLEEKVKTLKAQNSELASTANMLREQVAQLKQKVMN; partner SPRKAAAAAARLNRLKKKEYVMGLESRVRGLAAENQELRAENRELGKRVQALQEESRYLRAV
E32R: -1.26 natural log
R30W: -1.5 natural log
A29L: -1.51 natural log
A40E: -1.58 natural log
A49K: -1.54 natural log
E44S: -1.53 natural log
S43M: -1.29 natural log
N42T: -1.52 natural log
I28R: -1.47 natural log
K34C: -1.51 natural log
M51P: -1.49 natural log
E32C: -1.53 natural log
K39R: -1.3 natural log

Study 3 — target: CCNA2, cyclin fold, Cln2 fusion (human); technique: yeast growth competition, sequencing; sample: yeast; notes: strong parent motif; baseline: not given; direction: higher = stronger binding; endpoint: normalised enrichment score
Starting sequence: CDC25A docking peptide (human); PPHRRRLLFACSP
PPHRRRLLFLCSP [A10L]: 2.37
PPHRRRYLFACSP [L7Y]: 1.38
PPHFRRLLFACSP [R4F]: 2.15
PPHRRRLLFACDP [S12D]: 2.74
PPHKRRLLFACSP [R4K]: 2.59
PPHRRRLLMACSP [F9M]: 1.37
PPHRRRLLAACSP [F9A]: 1.56
PPLRRRLLFACSP [H3L]: 3.37
PPHRRRLLFAHSP [C11H]: 2.62
PPHRRRLKFACSP [L8K]: 2.45
PPHRRRLLFACVP [S12V]: 2.99
PPHRRRRLFACSP [L7R]: 1.92
PPHRERLLFACSP [R5E]: 0.0926
PPHRRRLLFACSV [P13V]: 1.88

Single results of other studies
PhoQ, residues 284 288 289 292 302 303 SASVAL  fold induction (PhoP, residues 12 14 15 18 19 AQALL (Escherichia coli, UniProt P23836); Sort-seq, measured: YFP reporter; E. coli; PhoQ-PhoP variant library, with: 10 µM Mg2+; baseline: high Mg2+ state, higher = stronger signaling): 6.99

Repeated from above (study 3):
PPHRRRLLAACSP [F9A]: 1.56
PPHRRRRLFACSP [L7R]: 1.92
PPHKRRLLFACSP [R4K]: 2.59
PPHRRRLLFACSV [P13V]: 1.88
PPHRRRLLFACVP [S12V]: 2.99
PPLRRRLLFACSP [H3L]: 3.37
